# Assay results gathered from unrelated publications.
# Compare with care: the assays were run in different laboratories. Several values in a cell are separate wells, animals, samples, runs or records. ± marks the error that the study gave.
Compound,tested on,assay,test system,setting,how to read,endpoint,result
CC(C)(C)NC(=O)c1cncn1C1CCN(c2ccc(-c3nnc(C(F)(F)F)o3)cn2)CC1,HDMEC,"qPCR, item: TSC22D1 isoform 3",,"concentration not given, unit not given",baseline: DMSO,mRNA level,1.07
COc1cccc2c1C(=O)c1c(O)c3c(c(O)c1C2=O)C[C@@](O)(C(=O)CO)C[C@@H]3O[C@H]1C[C@H](N)[C@H](O)[C@H](C)O1,"SAOS-2, A549",cytotoxicity,,,baseline: SAOS-2 over A549,selectivity ratio,7 fold
CC(=O)c1c(C)cc2cc(O)cc(O[C@@H]3O[C@H](CO)[C@@H](O)[C@H](O)[C@H]3O)c2c1O,HK-2 co-cultured with HepaRG,MTT,,"33.33 µM, 48 h",baseline: untreated control,cell viability,97.7 ± 10.7%
Cc1cc(Nc2ncc(Cl)c(Nc3ccccc3S(=O)(=O)C(C)C)n2)c(OC(C)C)cc1C1CCNCC1,CLB-BAR,"phosphoproteomics LC-MS/MS, item: NEK9 phosphorylation",,"200 nM, 60 min",baseline: untreated,log2 fold change,-2.97
CC(C)OP(=O)(OC(C)C)C(Cc1cc(C(C)(C)C)c(O)c(C(C)(C)C)c1)P(=O)(OC(C)C)OC(C)C,HEK293T ATF4-FLuc reporter,"ATF4 reporter gene, activator, luciferase reporter",,,,EC50,5.86 µM
COc1ccc(NC(=S)N/N=C/c2cccc3cc4ccccc4nc23)cc1,HeLa,PI flow cytometry,,"IC12.5, 48 h",,G2/M phase cells,11.9 ± 1.3%
Cc1cc(Nc2ncc(Cl)c(Nc3ccccc3S(=O)(=O)C(C)C)n2)c(OC(C)C)cc1C1CCNCC1,Ba/F3 EML4-ALK variant 1 L1196Q,cell viability,,,,Emax,100%
COc1cnc2cccc(N3CCc4c(cc(Cn5ccnc5C)cc4-c4cn(C)nc4C(F)(F)F)C3=O)c2c1,HCC1438,cell growth,,120 h,,EC50,> 30 µM
Cn1cc(Nc2nccc(-c3ccc4c(c3)CN(C3COC3)CC[C@H]4NC(=O)c3cn(C(C)(C)C)nn3)n2)cn1,mouse splenic B cells,item: VEGF signalling,,"30 mg/kg, IgD-activated in vivo","baseline: vehicle, direction not given",pathway activation z-score,1.39
CCCCc1nc(Cl)c(CO)n1Cc1ccc(-c2ccccc2-c2nn[nH]n2)cc1,human PBMC,"RNA-seq, item: GJB2 mRNA",,"10 µg/mL, 24 h",baseline: untreated control,log2 fold change,2.79
O=c1c(O)c(-c2ccc(O)cc2)oc2cc(O)cc(O)c12,Caco-2/THP-1 co-culture,,,"0.05 µg/mL, with: LPS 50 ng/mL",,kynurenine level,122 ± 2.3 % change
COc1cc2c(cc1OC)-c1c/c(=N\c3c(C)cc(C)cc3C)n(C)c(=O)n1CC2,HEK293T ATF4-FLuc reporter,"ATF4 reporter gene, activator, luciferase reporter",,,,EC50,4.13 µM
COc1cc(/C=C/C(=O)N2CCC=CC2=O)cc(OC)c1OC,MDA-MB-468,"qRT-PCR, item: FOXM1",,"30 µM, 6 h",baseline: time zero,mRNA level,76.9 ± 4.8%
CCn1cc(-c2cc(Cn3ccnc3)cc3c2CCN([C@H](c2cc(OC)ccn2)C2CC2)C3=O)c(C(F)(F)F)n1,HCC38,"cell growth, inhibitor",,120 h,,EC50,23.6 µM
C[C@@]12C(=O)OC(=O)[C@]1(C)[C@H]1CC[C@@H]2O1,HEK293T ATF4-FLuc reporter,"ATF4 reporter gene, activator, luciferase reporter",,,,EC50,> 9.96 µM
O=C(O)/C=C/c1ccc(O)c(O)c1,Caco-2/THP-1 co-culture,TEER,,"0.25 µg/mL, with: LPS 250 ng/mL",baseline: control,transepithelial electrical resistance,81.4 ± 11.2%
CC(=O)OCC1=C(C(=O)O)N2C(=O)[C@@H](NC(=O)Cc3cccs3)[C@H]2SC1,THP-1,pyroptotic LDH release,,"2 µM, 40 min, with: LPS then nigericin",,inhibition,41.5%
c1ccc2[nH]ccc2c1,HCT-8,"RNA-seq, item: KLHL24",,concentration not given,,"mRNA level, LS mean",33.1 counts per million
O=C(O)c1cc(O)c2c(c1)[C@@H]([C@H]1c3cc(C(=O)O)cc(O)c3C(=O)c3c(O[C@@H]4O[C@H](CO)[C@@H](O)[C@H](O)[C@H]4O)cccc31)c1cccc(O[C@@H]3O[C@H](CO)[C@@H](O)[C@H](O)[C@H]3O)c1C2=O,THP-1,pyroptotic LDH release,,"2 µM, 40 min, with: LPS then nigericin",,inhibition,-18.8%
C=CC1=C(C)c2cc3[n-]c(cc4nc(cc5[n-]c(cc1n2)c(C)c5C=C)C(C)=C4CCC(=O)O)c(CCC(=O)O)c3C.[Zn+2],SH-SY5Y,"RNA-seq, item: SERPINE1 mRNA",,"5 µM, 5 h",baseline: untreated cells,fold change,2.14
O=C(/C=C/C=C/C=C/C1CCCCC1)NC1=C[C@@](O)(/C=C/C=C/C=C/C(=O)NC2=C(O)CCC2=O)[C@@H]2O[C@@H]2C1=O,SW48,"cell growth, CellTiter-Glo",,78 h,,GI50,14.7 µM
CN(C)C/C=C/C(=O)Nc1cc2c(Nc3ccc(F)c(Cl)c3)ncnc2cc1O[C@H]1CCOC1,"SW-620/AD300 spheroids, P-gp overexpressing",CellTiter-Glo 3D,,"6 µM, 12 days",baseline: untreated,viability,0.5 ± 0.1%
Nc1ncc(-c2cccnc2)nc1Nc1ccc2[nH]ccc2c1,HEK293T ATF4-FLuc reporter,"ATF4 reporter gene, activator, luciferase reporter",,,,EC50,> 9.96 µM
Cc1nc(Nc2[nH]nc3c2CN(C(=O)N[C@H](CN(C)C)c2ccccc2)C3(C)C)c2sccc2n1,THP-1,pyroptotic LDH release,,"2 µM, 40 min, with: LPS then nigericin",,inhibition,16.1%
Cc1c(C)c2c(c(C)c1O)CCC(C)(COc1ccc(CC3SC(=O)NC3=O)cc1)O2 (stereo not drawn),"hepatocytes, iPSC-derived, line L2","cell viability, RealTime-Glo MT",,"72 h, differentiation day 23",,IC50,42 µM
COc1cc(/C=C/C(=O)O)ccc1O,"coculture, Caco-2, THP-1",ELISA,,"500 ng/mL, 8 h, with: LPS, IFNγ, ATP",baseline: untreated control,IL-1β level,9 ± 0.7 fold change
COc1c(O[C@@H]2O[C@H](CO)[C@@H](O)[C@H](O)[C@H]2O)cc2c(c1O)C(=O)c1c(cc(C)c(O)c1OC)C2=O,HK-2 co-cultured with HepaRG,MTT,,"133.33 µM, 24 h",baseline: untreated control,cell viability,97.6 ± 11.2%
N=C(NCCCCCCNC(=N)NC(=N)Nc1ccc(Cl)cc1)NC(=N)Nc1ccc(Cl)cc1,HEK293T ATF4-FLuc reporter,"ATF4 reporter gene, activator, luciferase reporter",,,,EC50,5.3 µM
N#Cc1ccc(-c2c(-c3ccccn3)nc3n2CCC3)cn1,Leishmania infantum,,"macrophages, MHOM/MA(BE)/67/ITMAP263, amastigote",,,IC50,50.8 µM and > 64 µM
Cn1c(Nc2nc3ccc(C(F)(F)F)cc3s2)nc2cc(C(=O)NCCOCCO)ccc21,SH-SY5Y,"RNA-seq, item: EVA1A mRNA",,"5 µM, 5 h",baseline: untreated cells,fold change,2.12
Cc1cccc(-c2[nH]c(CNc3ccccc3F)nc2-c2ccc3ncnn3c2)n1,bone marrow CD138+ myeloma cells,XTT,,"1.4 µM, phenol red-free RPMI",,viability,12%
CC(C)=CCC/C(C)=C/CC/C(C)=C/CSc1ccccc1C(=O)O,THP-1,pyroptotic LDH release,,"2 µM, 40 min, with: LPS then nigericin",,inhibition,72%
Fc1ccc(Nc2c(-c3ccccn3)nc3cnccn23)cc1,Leishmania infantum,,"macrophages, MHOM/MA(BE)/67/ITMAP263, amastigote",,,IC50,> 64 µM
Clc1nc(NCc2ccco2)c2[nH]cnc2n1,FD iPSC-derived cardiomyocytes,"alternative splicing, RNA-seq, item: CHN1 exon chr2(-):174875787-174875865",,unit not given,baseline: DMSO minus compound,ΔPSI,-0.288
COC1=C2C[C@@H](C)C[C@H](OC)[C@H](O)[C@@H](C)/C=C(\C)[C@H](OC(N)=O)[C@@H](OC)/C=C\C=C(/C)C(=O)NC(=CC1=O)C2=O,human iPSC cardiomyocytes,plate-normalised,,"concentration not given, hit retest","baseline: vehicle controls, SDs below control",MyBP-C level change,7.91 SD
Cc1cc(C)cc(OCC2CNC(=O)O2)c1 (stereo not drawn),THP-1,pyroptotic LDH release,,"2 µM, 40 min, with: LPS then nigericin",,inhibition,1.91%
COc1cc(CCC(=O)O)ccc1O,Caco-2/THP-1 co-culture,,,"concentration not given, with: LPS 250 ng/mL",,kynurenine level,148 ± 6.9 % change
CC/C(=N\NC(=O)NCc1cccc(O)c1)c1ccc(O)c(C)c1O,SK-OV-3,"microarray, item: KRTAP2-3",3D culture in gellan gum,"10 µM, 24 h",baseline: DMSO,log ratio of mRNA level,5.3
CCn1cc(-c2cc(Cn3ccoc3=N)cc3c2CCN([C@@H](C)c2cc(OC)ccn2)C3=O)c(C(F)(F)F)n1,SNU119,cell growth,,120 h,,EC50,0.268 µM
Cc1cc(C)n(-c2nc(-c3ccc(Cl)cc3)c3c(NC(=O)c4ccccc4)nnc-3[nH]2)n1,RXF 393,SRB,,"10 µM, NCI60 single-dose screen",baseline: untreated,cell growth,103%
COc1cc(-c2oc3cc(O)cc(O)c3c(=O)c2O)ccc1O,Caco-2/THP-1 co-culture,,,"concentration not given, with: LPS 250 ng/mL",,kynurenine level,98.3 ± 1.1 % change
O=C(COP(=O)(O)O)[C@@H](O)[C@H](O)[C@H](O)COP(=O)(O)O,HepG2 PGAM1 knockout,,,concentration not given,,glucose consumption,1.1 mM and 1.45 mM and 1.32 mM
OC[C@H]1O[C@@H](n2cnc3c(NCc4ccco4)ncnc32)[C@H](O)[C@@H]1O,HEK293T ATF4-FLuc reporter,"ATF4 reporter gene, activator, luciferase reporter",,,,EC50,4.98 µM
CC(C)n1ncc2c(C(=O)NCC3(C)CNC3)cc(C3CC3)nc21,Enterovirus D68,cytopathic effect,"RD, US/MO/14-18949",500 nM,,cell protection,66% and 53.6% and 79.2%
Nc1nc(Cl)nc2c1ncn2[C@@H]1O[C@H](CO)[C@@H](O)[C@@H]1F,HEK293T ATF4-FLuc reporter,"ATF4 reporter gene, activator, luciferase reporter",,,,EC50,7.84 µM
CC(C)NCC(O)c1ccc(O)c(O)c1 (stereo not drawn),mouse ventricular cardiomyocytes,,,"dose not given, 0.235 s",,sarcomere length,1.8 µm
O=C1CN(/N=C/C=C/c2ccc([N+](=O)[O-])o2)C(=O)N1,THP-1,pyroptotic LDH release,,"2 µM, 40 min, with: LPS then nigericin",,inhibition,1.08%
CCc1c(-c2ccccc2)c(-c2ccccc2)nn1-c1ccccc1-c1cccc(OCC(=O)O)c1,mouse osteoclasts,"RT-qPCR, item: Pik3cb",,"concentration not given, unit not given",baseline: bone marrow macrophages,mRNA level,0.753 and 0.801 and 0.796
CCCCN1CCN(c2ccc3[nH]c(-c4ccc5[nH]c(-c6ccc(OCC)c(OCC)c6)nc5c4)nc3c2)CC1,SF-268,SRB,,"10 µM, 48 h",,growth percent,51.6%
CC(C)C[C@H](NC(=O)[C@H](Cc1ccccc1)NC(=O)c1cnccn1)B(O)O,HEK293T ATF4-FLuc reporter,"ATF4 reporter gene, activator, luciferase reporter",,,,EC50,> 9.96 µM
Cn1cc(-c2ccc(-c3cncc(Cl)c3N3CCC4(CCNC4=O)CC3)cc2)cn1,COLO 205,"gene expression, microarray, item: TTLL5 mRNA",,"concentration not given, 6 h",baseline: untreated cells,log2 fold change,-1.89
CN1CC[C@H](c2c(O)cc(O)c3c(=O)cc(-c4ccccc4Cl)oc23)[C@H](O)C1,THP-1,pyroptotic LDH release,,"2 µM, 40 min, with: LPS then nigericin",,inhibition,-5.67%
CN1CCN(c2ccc3[nH]c(-c4ccc5[nH]c(-c6ccc(C(F)(F)F)cc6)nc5c4)nc3c2)CC1,SF-268,SRB,,"10 µM, 48 h",,growth percent,70.8%
O=C(O)CCc1ccc(O)cc1,"coculture, Caco-2, THP-1",ELISA,,"250 ng/mL, 8 h, with: LPS, IFNγ, ATP",baseline: untreated control,IL-1β level,5.9 ± 2.2 fold change
Cc1c(C)c2c(c(C)c1O)CCC(C)(COc1ccc(CC3SC(=O)NC3=O)cc1)O2 (stereo not drawn),HepG2,item: MTT reduction,,"24 h, representative mode",,point of departure,0.339 µM
O=C(O)Cc1ccc(O)cc1,Caco-2/THP-1 co-culture,TEER,,"0.05 µg/mL, with: LPS 50 ng/mL",baseline: control,transepithelial electrical resistance,75.3 ± 5.4%
COc1ccc(O)c(C(=O)O)c1,THP-1,pyroptotic LDH release,,"2 µM, 40 min, with: LPS then nigericin",,inhibition,3.28%

# For quick reference, copied from above:
Compound,tested on,assay,test system,setting,how to read,endpoint,result
COc1cnc2cccc(N3CCc4c(cc(Cn5ccnc5C)cc4-c4cn(C)nc4C(F)(F)F)C3=O)c2c1,HCC1438,cell growth,,120 h,,EC50,> 30 µM
Cc1c(C)c2c(c(C)c1O)CCC(C)(COc1ccc(CC3SC(=O)NC3=O)cc1)O2 (stereo not drawn),HepG2,item: MTT reduction,,"24 h, representative mode",,point of departure,0.339 µM
CC(C)OP(=O)(OC(C)C)C(Cc1cc(C(C)(C)C)c(O)c(C(C)(C)C)c1)P(=O)(OC(C)C)OC(C)C,HEK293T ATF4-FLuc reporter,"ATF4 reporter gene, activator, luciferase reporter",,,,EC50,5.86 µM
CC(C)C[C@H](NC(=O)[C@H](Cc1ccccc1)NC(=O)c1cnccn1)B(O)O,HEK293T ATF4-FLuc reporter,"ATF4 reporter gene, activator, luciferase reporter",,,,EC50,> 9.96 µM
